Assay results pooled from the literature.
Numbered parts are unrelated; each lists some results of a single study.

Block 1
Target: Sal-like protein 4, full length isoform B (SALL4, Homo sapiens, UniProt Q9UJQ4-2, residues 1-616)
Technique: universal PBM
Molecule type: double-stranded DNA, one strand shown
Matrix: in vitro
Tested at: not given
Notes: 8-mer, flanks averaged, mean of replicates
Reading: higher = stronger binding
Quantity: E-score
Construct (chain): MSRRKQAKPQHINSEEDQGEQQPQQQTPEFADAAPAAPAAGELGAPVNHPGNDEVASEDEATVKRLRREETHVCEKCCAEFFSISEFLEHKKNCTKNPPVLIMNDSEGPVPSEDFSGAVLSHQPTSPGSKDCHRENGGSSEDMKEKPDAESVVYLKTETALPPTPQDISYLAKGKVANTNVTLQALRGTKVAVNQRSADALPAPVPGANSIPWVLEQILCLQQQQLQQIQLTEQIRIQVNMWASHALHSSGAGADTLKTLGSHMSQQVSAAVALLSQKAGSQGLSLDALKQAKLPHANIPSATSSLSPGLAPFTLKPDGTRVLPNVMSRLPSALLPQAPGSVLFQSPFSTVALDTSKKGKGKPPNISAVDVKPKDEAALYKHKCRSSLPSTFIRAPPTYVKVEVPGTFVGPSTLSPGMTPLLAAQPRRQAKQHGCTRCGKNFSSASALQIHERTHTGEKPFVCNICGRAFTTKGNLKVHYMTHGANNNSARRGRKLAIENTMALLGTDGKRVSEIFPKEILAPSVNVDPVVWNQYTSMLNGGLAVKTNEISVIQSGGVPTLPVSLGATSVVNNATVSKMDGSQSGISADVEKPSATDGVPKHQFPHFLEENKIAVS
Oligonucleotide = TATGGTCA; value = 0.191
Oligonucleotide = CGTCCGGC; value = -0.326
Oligonucleotide = ACTTGTTA; value = 0.123
Oligonucleotide = ACGGACTG; value = -0.161
Oligonucleotide = AACTACTC; value = 0.116

Block 2
Target: Histone acetyltransferase KAT6A, winged helix 2, GST fusion (KAT6A, Homo sapiens, UniProt Q92794, residues 85-181)
Technique: protein binding microarray
Molecule type: double-stranded DNA, one strand shown
Matrix: in vitro
Tested at: not given
Notes: 8-mer, flanks averaged, mean of 2 arrays, mostly near background
Reference: not given
Reading: higher = stronger binding
Quantity: E-score
Construct (chain): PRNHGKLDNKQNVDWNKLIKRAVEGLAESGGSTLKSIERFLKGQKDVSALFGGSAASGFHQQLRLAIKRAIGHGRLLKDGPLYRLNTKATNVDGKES
Oligonucleotide = AAATAGTG; value = 0.0914
Oligonucleotide = CTATCGCC; value = -0.037
Oligonucleotide = ACGTCAAC; value = -0.0785
Oligonucleotide = CAGAGCAG; value = 0.155
Oligonucleotide = ACCAGCCG; value = 0.1
Oligonucleotide = GCTACATA; value = -0.0519

Block 3
Target: Interferon regulatory factor 3, full length, phosphomimetic (IRF3, Homo sapiens, UniProt Q14653, residues 1-427, S386D/S396D/S398D/S402D/T404D/S405D)
Sequence of UniProt Q14653 (whole entry, unmodified, looked up): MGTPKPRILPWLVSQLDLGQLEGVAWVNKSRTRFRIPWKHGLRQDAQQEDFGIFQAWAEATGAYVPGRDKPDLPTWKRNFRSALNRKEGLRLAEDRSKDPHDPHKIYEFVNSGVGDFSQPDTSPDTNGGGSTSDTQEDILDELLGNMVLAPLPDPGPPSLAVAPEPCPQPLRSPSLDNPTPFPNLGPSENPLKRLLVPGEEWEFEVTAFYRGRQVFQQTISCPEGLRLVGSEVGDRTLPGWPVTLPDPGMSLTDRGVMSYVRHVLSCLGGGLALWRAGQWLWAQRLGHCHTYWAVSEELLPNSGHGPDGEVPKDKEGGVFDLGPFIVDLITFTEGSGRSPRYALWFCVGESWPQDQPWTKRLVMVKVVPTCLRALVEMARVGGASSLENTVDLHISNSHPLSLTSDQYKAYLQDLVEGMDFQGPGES
Technique: protein-binding microarray
Molecule type: double-stranded DNA, one strand shown
Matrix: in vitro
Tested at: 2540 nM top
Notes: 60-bp whole probe
Added: salmon DNA 0.4 mg/ml
Reference: random background probes
Reading: higher = stronger binding
Quantity: fitted relative affinity
Constant ends, left off below: GCCTAGCAC … GTGCTAGGTCTTGATTCGCTTGACGCTGCTG
Oligonucleotide = GACGGTTTCCTTCTCTTGAC; value = 10 z-score
Oligonucleotide = GAAGTAATTTCAAACCACAG; value = -0.0565 z-score
Oligonucleotide = GACGGTTACGGTTTCGGGAC; value = 3.83 z-score
Oligonucleotide = TTGTAGATGCCTTTCTCTTG; value = 3.54 z-score
Oligonucleotide = CCAGGGACAAAGCGGTGCGA; value = -0.892 z-score
Oligonucleotide = AGGTTCTACTCCGTTAGTTG; value = 0.168 z-score

Other studies, line by line
Molecule = PhoQ, residues 284 288 289 292 302 303 SIHMAM; target = PhoP, residues 12 14 15 18 19 HEGLL (Escherichia coli, UniProt P23836); test = Sort-seq, refers to: YFP reporter; system = E. coli; conditions = PhoQ-PhoP variant library, added: 10 µM Mg2+; how to read = reference: high Mg2+ state, higher = stronger signaling; quantity = fold induction; value = 12

Some of these lines once more (block 3):
Oligonucleotide = AGGTTCTACTCCGTTAGTTG; value = 0.168 z-score
Oligonucleotide = GACGGTTACGGTTTCGGGAC; value = 3.83 z-score
Oligonucleotide = CCAGGGACAAAGCGGTGCGA; value = -0.892 z-score
